Measured values of several laboratories.
Every numbered part comes from another study and shows a few of its results, in no order. Positions count from the first letter of the parent shown.

Sample 1
Target: CCND3, cyclin fold, Cln2 fusion (human)
Method: yeast growth competition, sequencing
Matrix: yeast
Setting: weak parent motif
Relative to: not given
Reading: higher = stronger binding
Starting sequence: PKN2 docking peptide (human); VSAVRKLDFSDTM; partner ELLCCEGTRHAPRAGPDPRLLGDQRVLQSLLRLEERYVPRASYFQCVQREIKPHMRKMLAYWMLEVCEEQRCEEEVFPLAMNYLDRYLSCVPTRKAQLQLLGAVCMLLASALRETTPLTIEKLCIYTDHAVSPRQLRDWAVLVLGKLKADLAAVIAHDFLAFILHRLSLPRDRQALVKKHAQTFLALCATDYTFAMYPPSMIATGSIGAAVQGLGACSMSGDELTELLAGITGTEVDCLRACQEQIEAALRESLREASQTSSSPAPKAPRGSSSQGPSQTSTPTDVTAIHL
Substitution | normalised enrichment score
VSAVRKLDFSQTM [D11Q] | 0.488
VSAVRKSDFSDTM [L7S] | 0.145
VSAVRKLDFSDVM [T12V] | 0.435
VSAVVKLDFSDTM [R5V] | -0.0403
VSAVRKLDFSMTM [D11M] | 0.335
VSAVRKLSFSDTM [D8S] | 0.461
VSAVRKLDFSDPM [T12P] | 1.01
VSAVIKLDFSDTM [R5I] | 0.138

Sample 2
Target: Histone acetyltransferase KAT6A, winged helix 1, GST fusion (KAT6A, Homo sapiens, UniProt Q92794, residues 1-85)
Method: protein binding microarray
Form: double-stranded DNA, one strand shown
Matrix: in vitro
Concentration: not given
Setting: 8-mer, flanks averaged, mean of 2 arrays, mostly near background
Relative to: not given
Reading: higher = stronger binding
Target sequence (chain): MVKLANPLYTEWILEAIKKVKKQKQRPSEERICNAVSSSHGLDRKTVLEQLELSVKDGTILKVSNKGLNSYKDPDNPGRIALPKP
Strand | E-score
AACCAAGA | -0.289
AGACCAAT | -0.178
ACTGTGTG | -0.183
CAAGACAC | -0.105
AATCAACC | 0.0101
GGGCGGAA | 0.0633
ACGGCCGC | 0.467
ACTCTTGA | -0.24
CCTCAACA | -0.0685
CAATCTTA | 0.0135
AAAGCGCA | 0.29
GCTTCTAA | -0.233

Sample 3
Target: Ras GTPase-activating protein-binding protein 1, RRM domain (G3BP1, Homo sapiens, UniProt Q13283)
Chain of UniProt Q13283 (whole entry, looked up): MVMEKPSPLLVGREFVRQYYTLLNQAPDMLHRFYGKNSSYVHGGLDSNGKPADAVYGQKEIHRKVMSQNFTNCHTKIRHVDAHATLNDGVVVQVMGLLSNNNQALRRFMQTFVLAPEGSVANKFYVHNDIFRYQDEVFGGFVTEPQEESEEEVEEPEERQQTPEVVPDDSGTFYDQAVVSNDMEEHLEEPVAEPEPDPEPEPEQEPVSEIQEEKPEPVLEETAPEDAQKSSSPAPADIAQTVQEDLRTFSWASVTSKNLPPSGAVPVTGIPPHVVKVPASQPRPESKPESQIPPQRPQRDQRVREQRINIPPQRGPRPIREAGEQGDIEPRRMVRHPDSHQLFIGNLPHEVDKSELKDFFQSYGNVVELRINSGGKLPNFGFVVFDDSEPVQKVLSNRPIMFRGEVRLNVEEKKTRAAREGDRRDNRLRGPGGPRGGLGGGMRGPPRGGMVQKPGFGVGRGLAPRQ
Method: RNA Bind-n-Seq
Form: RNA
Matrix: in vitro
Concentration: 1 µM
Setting: whole 134-nt RNA, ends assumed
Together with: 150 mM KCl
Relative to: input library
Reading: higher = stronger binding
Strand | log2 enrichment
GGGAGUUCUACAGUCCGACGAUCCUCAAGUCCUGUGCUACACAUCGUAUGUACCGAAUCGGGAAAGGGAGGGAGGGAAAGUAUUAUGUUACGCCGUUCGGAUCUGCACUUCCAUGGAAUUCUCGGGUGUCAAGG | 0.814
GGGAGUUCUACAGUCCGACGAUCCAAGUCCUGUGCUACACAUCGUAUGUACCGAAUCGGGUUUGGGAAAGGGUUUGGGAAAGUAUUAUGUUACGCCGUUCGGAUCUGCACUUCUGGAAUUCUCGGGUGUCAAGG | 0.752
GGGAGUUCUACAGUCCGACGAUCGCAGGAAGUAAAAACAAAUGGAAAUGCUUCGGAUAGUGGCAGGGGUGGGGGUUGUUAAGGAAAGGGUGGGAUGGGAGUGGGUAAAGAGUUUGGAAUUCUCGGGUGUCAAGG | 0.914
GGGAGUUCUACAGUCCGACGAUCUAACUUUAGAGGAGGAUCUGAUGGCUAUGGCAGUGGACGUGGAUUUGGGGAUGGCUAUAAUGGGUAUGGAGGAGGACCUGGAGGUGGCAAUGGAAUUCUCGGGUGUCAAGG | -0.882
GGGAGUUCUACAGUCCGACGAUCUCCUGUGCUACACAUCGUAUGUACCGAAUCGGAAAAAAGGGAAAAAAGGGGAAAAAAGGAAAGUAUUAUGUUACGCCGUUCGGAUCUGCAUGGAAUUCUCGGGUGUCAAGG | -0.0764
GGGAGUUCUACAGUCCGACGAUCCCUGUGCUACACAUCGUAUGUACCGAAUCAAACCCCCCCAAAUUUUUAAAUUUUUUUAAAAAAGUAUUAUGUUACGCCGUUCGGAUCUGCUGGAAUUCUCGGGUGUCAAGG | -0.565
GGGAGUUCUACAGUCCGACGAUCGCAGGAAGUAAAAACAAAUGGAAAUGCUUCGGAUAGUGGCAGGGGUGGGGGUUGCUAAGCAAAGGGUGGGAUGGGAGUGGGUAAAGAGUUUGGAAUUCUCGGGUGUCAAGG | 1.11
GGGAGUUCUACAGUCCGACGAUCCACAGACAACACGCACCCACACAGAAACAGAGGGAAGGGGUUGGGAUGGGGACAGGGUGCACAGCAGGGCGGGGUAGGACCCCAGCCCCUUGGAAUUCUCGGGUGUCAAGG | -0.181
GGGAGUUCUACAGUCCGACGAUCGCAGGAAGUAAAAACAAAUGGAAAUGCUUCGGAUAGUGGCAGGGGUGGGGGUUGCUAAGGAAAAGGUGGGAUGGGAGUGGGUAAAGAGUUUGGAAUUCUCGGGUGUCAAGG | 1.06
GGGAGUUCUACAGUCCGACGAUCCAAGUCCUGUGCUACACAUCGUAUGUACCGAAUCGGGUUUUUGGGAAAGGGUGGGAAAGUAUUAUGUUACGCCGUUCGGAUCUGCACUUCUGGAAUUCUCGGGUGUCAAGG | 0.691

Further values, each from its own experiment
Molecule | target | test | test system | setting | how to read | endpoint | result
PhoQ, residues 284 288 289 292 302 303 ALSMDL | PhoP, residues 12 14 15 18 19 NYFTV (Escherichia coli, UniProt P23836) | Sort-seq, item: YFP reporter | E. coli | PhoQ-PhoP variant library, together with: 10 µM Mg2+ | relative to: high Mg2+ state, higher = stronger signaling | fold induction | 22.8
